# Measurements of several laboratories.
# ± gives the spread as reported.
SMILES,test,test system,setting,scale,measurement,value
N=C(N)NCc1ccc(C(=O)NCCCC[C@H](NC(=O)N[C@@H](CCC(=O)O)C(=O)O)C(=O)O)cc1[131I],,"SCID mouse, PC-3 xenografts, heart",1 h,,tissue uptake,0.74 ± 0.2 %ID/g
CC(=O)OC1CCC2(C)C3CC(OC(C)=O)C4(C)C(C5=CC(=O)OC5)CCC4(O)C3CCC2(N=[N+]=[N-])C1 (stereo not shown),,,pH 7.4,,logD,2.71
CC[C@@H]1C[C@]1(NC(=O)[C@@H]1C[C@@]2(CN1C(=O)[C@@H](NC(=O)[C@@H](NC(=O)[C@@H]1CCCCN1C(C)C)C1CCCCC1)C(C)(C)C)C(C)(C)C21CCC1)C(=O)NS(=O)(=O)N1CCCC1,,human,"oral, 10 mg, together with: ritonavir",baseline: without ritonavir,fold increase in exposure,~50 fold
C/C=C/C=C/C/C=C/CCCCCCCc1cccc(O)c1O,,"female Kunming mice, tumour-bearing, lungs","intravenous, 10 mg/kg, 8 h",,tissue concentration,4350 ± 870 ng/g
CSCC[C@@H]1NC(=O)[C@@H]2CSSC[C@H](NC(=O)[C@H](CO)NC(=O)[C@H](C)N)C(=O)N[C@@H](CCCNC(=N)N)C(=O)N[C@@H]([C@@H](C)O)C(=O)N3CCC[C@H]3C(=O)N[C@@H](CCCCN)C(=O)N[C@@H](CC(=O)O)C(=O)N[C@H]3CSSC[C@H](NC(=O)[C@H](CCCCN)NC(=O)[C@H](CCCNC(=N)N)NC(=O)[C@H](CC(N)=O)NC1=O)C(=O)N[C@@H](CCCCN)C(=O)N[C@H]1CSSC[C@H](NC(=O)[C@@H]4CCCN4C(=O)[C@H](CC(=O)O)NC(=O)[C@H](C)NC3=O)C(=O)N[C@@H](C)C(=O)N[C@@H](CCCCN)C(=O)N[C@@H](CCC(=O)O)C(=O)N[C@@H]([C@@H](C)O)C(=O)NCC(=O)N[C@@H](CSSC[C@@H](C(N)=O)NC(=O)[C@H](CCCNC(=N)N)NC(=O)[C@H](CC(N)=O)NC1=O)C(=O)N1CCC[C@H]1C(=O)N[C@@H](Cc1ccc(O)cc1)C(=O)NCC(=O)N[C@@H](CCCCN)C(=O)N2,,"DA rat, pristane-induced arthritis, serum","subcutaneous, 0.1 mg/kg every other day, end of 21-day trial",,ALT,51.4 U/L
CC1=CC(C)(C)N=C2C=CC(=O)C=C12,,"female Wistar Han rats, liver","oral, 2 days",,dose with liver alterations,≥ 87.5 mg/kg/day
C[C@@H](O)[C@H](NC(=O)[C@H](CCC(=O)O)NC(=O)[C@H](Cc1ccccc1)NC(=O)[C@H](Cc1c[nH]c2ccccc12)NC(=O)[C@H](CCCCN)NC(=O)[C@H](CCCCN)NC(=O)[C@H](CCCCN)NC(=S)Nc1ccc2c(c1)C(=O)OC21c2ccc(O)cc2Oc2cc(O)ccc21)C(=O)N[C@@H](Cc1c[nH]c2ccccc12)C(=O)N[C@@H](Cc1ccccc1)C(=O)N[C@H](C(=O)N[C@@H](CCC(=O)O)C(=O)N[C@@H](Cc1c[nH]c2ccccc12)C(=O)N1CCC[C@H]1C(=O)N[C@@H](CCCCN)C(=O)N[C@@H](CCCCN)C(=O)N[C@@H](CCCCN)C(=O)N[C@@H](CCCCN)C(=O)O)[C@@H](C)O,,gelatin hydrogel 50 mg/mL,"56.6 µg loaded, 72 h, no cross-linker, together with: PBS",,peptide release,32.7 µg
CC(C)C[C@H](NC(=O)[C@H](CCCCN)NC(=O)[C@H](CCC(=O)O)NC(=O)[C@H](C)NC(=O)[C@@H](NC(=O)[C@H](CCCCN)NC(=O)[C@H](CC(=O)O)NC(=O)[C@H](Cc1ccc(O)cc1)NC(=O)[C@H](Cc1ccccc1)NC(=O)[C@H](C)NC(=O)[C@H](CCCCN)NC(=O)[C@H](CC(C)C)NC(=O)[C@H](Cc1c[nH]c2ccccc12)NC(=O)[C@@H](N)CC(=O)O)C(C)C)C(=O)N[C@@H](CCCCN)C(=O)N[C@@H](CCC(=O)O)C(=O)N[C@@H](C)C(=O)N[C@@H](Cc1ccccc1)C(=O)N1CCC[C@H]1C(=O)N[C@@H](CC(=O)O)C(=O)N[C@@H](Cc1c[nH]c2ccccc12)C(=O)N[C@@H](C)C(=O)N[C@@H](CCCCN)C(=O)N[C@@H](C)C(=O)N[C@@H](C)C(=O)N[C@@H](Cc1ccc(O)cc1)C(=O)N[C@@H](CC(=O)O)C(=O)N[C@@H](CCCCN)C(=O)N[C@@H](C)C(=O)N[C@@H](C)C(=O)N[C@@H](CCC(=O)O)C(=O)N[C@@H](CCCCN)C(=O)N[C@@H](C)C(=O)N[C@@H](CCCCN)C(=O)N[C@@H](CCC(=O)O)C(=O)N[C@@H](C)C(=O)N[C@@H](C)C(=O)O,,"cynomolgus monkey male, plasma","intravenous infusion, 75 mg/kg every other day, day 27",,AUC(0-inf),8630 µg·h/mL
COC(=O)C[C@](O)(CCCC(C)(C)OC(C)=O)C(=O)O[C@@H]1C(OC)=C[C@]23CCCN2CCc2cc4c(cc2[C@H]13)OCO4,,"CD1 mouse, brain","oral, 1 mg/kg, 0.5 h, below quantification limit 1.00 ng/mL",,tissue concentration,not detected
CC[C@H](C)[C@H](NC(=O)CNC(=O)[C@H](Cc1ccccc1)NC(=O)[C@H](CCCCN)NC(=O)[C@H](CCCCN)NC(=O)[C@H](CCCNC(=N)N)NC(=O)[C@H](CCCNC(=N)N)NC(=O)[C@H](CCCNC(=N)N)NC(=O)[C@H](CCC(N)=O)NC(=O)[C@H](CCCNC(=N)N)NC(=O)[C@H](CCCNC(=N)N)NC(=O)[C@H](CCCCN)NC(=O)[C@H](CCCCN)NC(=O)[C@H](CCCNC(=N)N)NC(=O)CNC(=O)[C@@H](N)Cc1ccc(O)cc1)C(=O)N[C@H](C(=O)N[C@@H](CC(N)=O)C(=O)N[C@@H](CO)C(=O)N[C@@H](CCC(N)=O)C(=O)N[C@@H](CC(C)C)C(=O)N[C@@H](CCCCN)C(=O)N1CCC[C@H]1C(=O)O)[C@@H](C)O,derivative UV-vis spectrophotometry,DMPC:Chol large unilamellar vesicles vs PBS,"30 min, pH 7.4, 37 °C, lipid ratio 85:15",,partition coefficient Kp,1280 ± 91

# For quick reference, copied from above:
SMILES,test,test system,setting,scale,measurement,value
N=C(N)NCc1ccc(C(=O)NCCCC[C@H](NC(=O)N[C@@H](CCC(=O)O)C(=O)O)C(=O)O)cc1[131I],,"SCID mouse, PC-3 xenografts, heart",1 h,,tissue uptake,0.74 ± 0.2 %ID/g
